Measurements collected from several papers.
A part holds a random share of what one study measured.

Series 1 — technique: RNA Bind-n-Seq; form: RNA; sample: in vitro; tested at: 365 nM; reference: no-protein control; direction: higher = stronger binding
Target: RNA binding protein fox-1 homolog 2, RRM domain, GST-SBP tag (RBFOX2, Homo sapiens, UniProt O43251-10, residues 100-194)
Setting: natural RNA segment, single round, ends assumed
Construct (chain): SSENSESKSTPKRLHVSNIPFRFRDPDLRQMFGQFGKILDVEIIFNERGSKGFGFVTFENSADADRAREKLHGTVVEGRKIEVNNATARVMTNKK
Sequence | RBNS enrichment (R)
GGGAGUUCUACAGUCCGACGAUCAUUACUUAAGUAUUUAAAUUAUGAAAGAAUAAUGCAGACUUUUUAUUAUUUCUUAACUGACUAGAAAGAGCCACCAGCAUUACUCUGUGCCUUUUGGACUUGAGUUUGUAUGGAAUUCUCGGGUGCCAA | 0.821
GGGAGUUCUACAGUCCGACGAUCAAAUGUAGAUGCUAUGCAUUUUGAAAAUAAUCUGCAUCAGUUAGAACUGCAGAAGUUUUUUUAAUGCCACUUUAACACUAAUGCACUGACAGAUUCUAAAUAUUUUGUGAUGGAAUUCUCGGGUGCCAA | 1.19
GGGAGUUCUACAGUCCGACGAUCCCUCCAGCCCCUGAGAACUCCAUCUUCCCCUAGUUCUGCCCAGGAGCCCCUGAGAACCCCAUCUUCCCCUGGUUCUCUUGCCCACUCCCCUGCUGGGGCUCCUUCCUGGCUGGAAUUCUCGGGUGCCAA | 0.826
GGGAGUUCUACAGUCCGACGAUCAACAUACUGUUAAUAUUUAAUUAAAAGCAUUGUUUUUUCUAGAGCUGAGAAAUAGAAGCUAAAGAAUAAUUAGAGCUGAAAGGCUUCCUUAUAUCAAACCAUCUAACAUUUGGAAUUCUCGGGUGCCAA | 0.376
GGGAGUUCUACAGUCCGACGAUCUCAUUUGUACCCAGAAUGUAUUAAUAUAUUGCUAUUAGGUUAAUCUGUUAACUGAAUGCUUUGAUCAGCAUUGAGGUGAUGCUCACCUCCGAGGACCUCAGAACUGGUGCUGGAAUUCUCGGGUGCCAA | 0.404
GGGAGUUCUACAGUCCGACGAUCUACUGAAGGACAAUCCUGAAGUGCUGCAGCGCAUAGUGAAUGCCUCUUGGUGUUUUCACGUUCGUCUGUGAGGACUCAUAGACUUACAGAAUGAUGCCGAAUGGAAUGUUUGGAAUUCUCGGGUGCCAA | 0.977
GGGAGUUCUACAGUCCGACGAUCAGCAUCAGCUCAGACCGUGGGGUUCCACUGGGUAUUGGGAAUUAGGCUCCCCCACUAGCUUUCAGGUGGGUAAGUUUUUUUGUUUGUUUUUUGGGGGUCUUUAGACUCUUUGGAAUUCUCGGGUGCCAA | 4.36
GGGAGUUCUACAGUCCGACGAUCAGCCAUUGUGGUGCCGCCCCAGCUUCUGGAUACAGCCUUUUGGGUAAACACUGGGAACUCCAGAAGUUGUGGGGAGAGUGGGGAAUCAGACAGCCGCCUCUAGGGGCUGGUGGAAUUCUCGGGUGCCAA | 0.254
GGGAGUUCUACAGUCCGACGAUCGACUGUAGAGAAACUACUUUGAACCUGUGGUUGAAAACGAUGAAAUGUGAUAAAUCUUUUUGUAGUUCCUUGGAGGAUAGCUGAUAUCCCACUCCUUCGUUUUUCCUCUCUGGAAUUCUCGGGUGCCAA | 0.447
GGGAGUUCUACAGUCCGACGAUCUAGACCUGCCCGCCUUCGUUCCUACAGUUAGAUCAUCUUGAGAGAUACUUAAAAGUAUCUCCUCCUUACUUGAAAGAAUGAUGUUCUACAUGCUAAUAUUUGUGAGACAUUGGAAUUCUCGGGUGCCAA | 0.507
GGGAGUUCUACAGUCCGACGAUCCAAAAGGAAGGUGAUAGGGAAUUAUGGAAGUCCAUCCAAGCCCCUGACACAGAGCCUUCUGUGCUGUUUCCUGUCCUAGGUUUGAGAGACCAAAUAUGAACUUGUGAGUUUGGAAUUCUCGGGUGCCAA | 0.322
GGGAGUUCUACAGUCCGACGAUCGCAUGUCACACCCCCCCUCAGUAGACUUGAGUAUUUUGAUGACCAAAGAGGAUGAUUUUCCUCAGAGAGAAGUGCCAGCGCCCUCCAGAGCUGUGAUCCAGGAUGGCAUGUGGAAUUCUCGGGUGCCAA | 5.61

Series 2 — technique: aptamer microarray, sandwich; form: DNA with 2'F-ANA; sample: in vitro; tested at: 200 nM; together with: Cy3 exosite-II aptamer, 400 nM; direction: higher = stronger binding; sequence: GGTTGGTGTGGTTGG
Target: Prothrombin, mature alpha-thrombin (F2, Homo sapiens, UniProt P00734)
Setting: whole 15-mer aptamer, many near background
Modification | mean fluorescence intensity
2'F-ANA at 1 2 3 4 9 10 12 14 15 | 49.8 a.u.
2'F-ANA at 1 3 4 5 6 7 8 9 10 14 | 47.8 a.u.
2'F-ANA at 1 7 8 9 10 15 | 65.8 a.u.
2'F-ANA at 2 3 5 7 11 14 15 | 48.7 a.u.
2'F-ANA at 4 5 7 8 11 12 13 | 83.9 a.u.
2'F-ANA at 4 10 15 | 86.2 a.u.
2'F-ANA at 4 5 6 7 8 10 14 | 44.3 a.u.
2'F-ANA at 6 9 10 12 | 213 a.u.
2'F-ANA at 3 6 8 10 12 13 15 | 514 a.u.
2'F-ANA at 2 3 5 6 7 9 10 11 12 13 14 | 60.3 a.u.
2'F-ANA at 1 2 4 5 7 9 11 12 14 15 | 48.8 a.u.
2'F-ANA at 1 8 9 10 12 14 15 | 50 a.u.
2'F-ANA at 1 4 5 6 8 10 13 | 52.2 a.u.
2'F-ANA at 4 5 8 10 15 | 57.9 a.u.
2'F-ANA at 1 3 4 6 7 10 11 12 14 15 | 53.4 a.u.
2'F-ANA at 1 2 3 4 8 10 11 13 14 | 49.6 a.u.
2'F-ANA at 2 3 5 8 9 11 15 | 84.4 a.u.
2'F-ANA at 1 2 3 5 6 9 13 15 | 53.2 a.u.
2'F-ANA at 1 5 6 8 10 12 14 | 50 a.u.
2'F-ANA at 1 9 10 11 12 13 15 | 71 a.u.
2'F-ANA at 6 9 10 12 14 | 101 a.u.

Series 3 — technique: RNA Bind-n-Seq; form: RNA; sample: in vitro; tested at: 1 µM; setting: whole 134-nt RNA, ends assumed; together with: 150 mM KCl; reference: input library; direction: higher = stronger binding
Target: Ras GTPase-activating protein-binding protein 1, RRM domain (G3BP1, Homo sapiens, UniProt Q13283)
Chain of UniProt Q13283 (whole entry, looked up): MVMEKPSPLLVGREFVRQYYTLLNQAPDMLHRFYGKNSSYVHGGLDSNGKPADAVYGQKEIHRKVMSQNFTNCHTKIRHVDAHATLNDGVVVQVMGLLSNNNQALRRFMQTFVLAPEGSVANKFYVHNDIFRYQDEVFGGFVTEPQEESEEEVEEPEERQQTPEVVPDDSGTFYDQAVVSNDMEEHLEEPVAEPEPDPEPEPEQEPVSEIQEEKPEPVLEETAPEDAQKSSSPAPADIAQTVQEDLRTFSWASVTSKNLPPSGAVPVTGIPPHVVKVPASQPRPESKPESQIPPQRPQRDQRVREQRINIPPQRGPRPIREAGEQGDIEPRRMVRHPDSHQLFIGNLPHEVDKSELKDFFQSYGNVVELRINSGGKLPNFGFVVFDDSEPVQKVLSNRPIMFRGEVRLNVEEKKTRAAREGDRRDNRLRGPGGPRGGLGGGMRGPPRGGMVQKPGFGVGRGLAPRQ
Sequence | log2 enrichment
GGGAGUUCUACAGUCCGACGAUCACCAUGCAGGUGGGCAUCUUUGGCAAGUGGGGCAAGGGGGGGAUAGGGAGGGGGGUAACACUUUGGGAACAGGUGGUCCCAGGUCGUUUCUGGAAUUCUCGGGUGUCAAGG | -0.4
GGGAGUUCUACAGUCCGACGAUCUCCUGUGCUACACAUCGUAUGUACCGAAUCGGGAAAAAAAGGGUUUUUGGGAAAAAGGGAAAGUAUUAUGUUACGCCGUUCGGAUCUGCAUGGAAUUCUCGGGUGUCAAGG | 0.0584
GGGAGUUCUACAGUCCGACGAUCGGAGUGCCGUGAGCAGGCCGCGGGAACGUCGCCGUCACCUUGUCUCGGGGCCUCGGCGCUGCUUCCCGCCAAAACACGUUUACCGCGCGCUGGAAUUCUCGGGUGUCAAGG | -0.918
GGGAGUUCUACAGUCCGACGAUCCUGUGCUACACAUCGUAUGUACCGAAUCGGAAAAAAAGGAAAAAAAGGGGAAAAAAAGGGGAAAGUAUUAUGUUACGCCGUUCGGAUCUGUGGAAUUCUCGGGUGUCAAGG | 0.0634
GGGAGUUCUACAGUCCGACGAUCUCCUGUGCUACACAUCGUAUGUACCGAAUCGGGUUUUUGGGGUUUUUGGGUUUUUGGGGAAAGUAUUAUGUUACGCCGUUCGGAUCUGCAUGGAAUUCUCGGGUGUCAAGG | 0.137
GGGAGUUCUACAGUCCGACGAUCUGGCCCUAGUGGCAUGCGGGGAGGAAGAGGUGGCCUCAUGGAUCGUGGUGGUCCCGGUGGAAUGUUCAGAGGUGGCCGUGGUGGAGACAGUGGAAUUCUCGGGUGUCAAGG | 0.856
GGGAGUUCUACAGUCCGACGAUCGCCCAUGCUAAAGUAAGAUUGUCUAACAAAGUUGAAGCCAUUGAUGUGGAAGAGGCCAAACGCCUCCAUCGGGAAGCUCUGAAGCAGUCUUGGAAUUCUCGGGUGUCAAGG | -0.0869
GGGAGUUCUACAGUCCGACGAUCGCAGGAAGUAAAAACAAAUGGAAAUGCUUCGGAUAGUGGCAGGGGUGGGGGUUGCUAAGGAAAGGGUGGGAUGGGAGAGGGUAAAGAGUUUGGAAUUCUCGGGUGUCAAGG | 0.529
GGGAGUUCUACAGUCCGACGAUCGCAGGAAGUAAAAACAAAUGGAAAUGCUUCGGAUAGUGGCAGGGGUGGGGGUUGCUAAGAAAAGGGUGGGAUGGGAGUGGGUAAAGAGUUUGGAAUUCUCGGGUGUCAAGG | 1.06
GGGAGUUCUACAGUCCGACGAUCUCCUGUGCUACACAUCGUAUGUACCGAAUCGGGGUUUUUGGGGUUUUUUUGGGGAGGGGAAAGUAUUAUGUUACGCCGUUCGGAUCUGCAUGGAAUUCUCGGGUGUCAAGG | 0.672
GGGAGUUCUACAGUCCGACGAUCUCAAGUCCUGUGCUACACAUCGUAUGUACCGAAUCGGCCGGGGCCGGGGCCGGGAAAGUAUUAUGUUACGCCGUUCGGAUCUGCACUUCCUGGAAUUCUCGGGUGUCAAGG | -1.66
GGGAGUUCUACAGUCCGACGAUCAGUCCUGUGCUACACAUCGUAUGUACCGAAUCGGUUUUUGGAAAAAAAGGUUUUUGGAAAGUAUUAUGUUACGCCGUUCGGAUCUGCACUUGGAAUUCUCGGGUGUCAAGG | -0.426
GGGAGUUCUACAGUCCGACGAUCAAGUCCUGUGCUACACAUCGUAUGUACCGAAUCGGGGAGGGGAGGGGUUUUUGGGGAAAGUAUUAUGUUACGCCGUUCGGAUCUGCACUUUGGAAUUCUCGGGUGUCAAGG | 1.01
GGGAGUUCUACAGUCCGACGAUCUCCUGUGCUACACAUCGUAUGUACCGAAUCGGGGAAAAAAAGGGGAGGGGAAAAAGGGGAAAGUAUUAUGUUACGCCGUUCGGAUCUGCAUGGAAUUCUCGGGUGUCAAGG | 0.588

Series 4 — technique: protein binding microarray; form: double-stranded DNA, one strand shown; sample: in vitro; tested at: not given; reference: not given; direction: higher = stronger binding
Target: Histone acetyltransferase KAT6A, winged helix 2, GST fusion (KAT6A, Homo sapiens, UniProt Q92794, residues 85-181)
Setting: 8-mer, flanks averaged, mean of 2 arrays, mostly near background
Residues (chain): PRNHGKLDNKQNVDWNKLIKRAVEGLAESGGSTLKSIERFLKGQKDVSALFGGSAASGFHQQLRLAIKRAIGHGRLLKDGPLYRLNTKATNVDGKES
Sequence | E-score
CCCTCGGA | 0.216
ATTGGGGC | -0.0704
TATCGCGA | 0.105
AATGTCTG | 0.0166
CAACTCTC | -0.15
AAATGATA | 0.162
CCGAAACA | -0.0291
AACCGGGC | 0.0836
AATGGCAG | 0.124
CCAACAGG | -0.0868
TACAACGA | 0.0107
CCCCTTCG | 0.115
TACATGAA | -0.1
GATAGAGC | 0.097
AACTGCGC | -0.0298
ACAGCACA | 0.113
CAATAGGC | 0.0616
GCTTTGAC | 0.0976
AGTAACAC | -0.0121
CACCGATG | -0.0701
ATTTCACC | 0.0203
CATTCAAC | -0.0532
GGGTTCCA | -0.0254
CCAAACTC | 0.193
ATAGCGGG | 0.0976

Some of these lines once more (series 3):
Sequence | log2 enrichment
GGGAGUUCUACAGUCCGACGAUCACCAUGCAGGUGGGCAUCUUUGGCAAGUGGGGCAAGGGGGGGAUAGGGAGGGGGGUAACACUUUGGGAACAGGUGGUCCCAGGUCGUUUCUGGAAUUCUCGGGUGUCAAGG | -0.4
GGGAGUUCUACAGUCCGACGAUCGCCCAUGCUAAAGUAAGAUUGUCUAACAAAGUUGAAGCCAUUGAUGUGGAAGAGGCCAAACGCCUCCAUCGGGAAGCUCUGAAGCAGUCUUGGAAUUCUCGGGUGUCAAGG | -0.0869
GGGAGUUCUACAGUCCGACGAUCAGUCCUGUGCUACACAUCGUAUGUACCGAAUCGGUUUUUGGAAAAAAAGGUUUUUGGAAAGUAUUAUGUUACGCCGUUCGGAUCUGCACUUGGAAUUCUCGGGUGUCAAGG | -0.426
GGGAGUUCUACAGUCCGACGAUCUGGCCCUAGUGGCAUGCGGGGAGGAAGAGGUGGCCUCAUGGAUCGUGGUGGUCCCGGUGGAAUGUUCAGAGGUGGCCGUGGUGGAGACAGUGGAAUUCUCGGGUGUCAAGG | 0.856
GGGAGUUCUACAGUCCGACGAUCUCCUGUGCUACACAUCGUAUGUACCGAAUCGGGGUUUUUGGGGUUUUUUUGGGGAGGGGAAAGUAUUAUGUUACGCCGUUCGGAUCUGCAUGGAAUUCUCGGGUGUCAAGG | 0.672
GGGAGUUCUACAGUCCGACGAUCAAGUCCUGUGCUACACAUCGUAUGUACCGAAUCGGGGAGGGGAGGGGUUUUUGGGGAAAGUAUUAUGUUACGCCGUUCGGAUCUGCACUUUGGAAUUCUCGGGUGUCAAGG | 1.01
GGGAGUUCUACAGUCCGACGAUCGGAGUGCCGUGAGCAGGCCGCGGGAACGUCGCCGUCACCUUGUCUCGGGGCCUCGGCGCUGCUUCCCGCCAAAACACGUUUACCGCGCGCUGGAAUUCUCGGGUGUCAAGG | -0.918
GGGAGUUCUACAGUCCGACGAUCUCAAGUCCUGUGCUACACAUCGUAUGUACCGAAUCGGCCGGGGCCGGGGCCGGGAAAGUAUUAUGUUACGCCGUUCGGAUCUGCACUUCCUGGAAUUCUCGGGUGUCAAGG | -1.66
